Measurements pooled from the literature.
Every numbered part comes from another study and shows a few of its results, in no order. Substitutions count along the parent as printed.

Series 1
Target: CCNB3, cyclin fold, Cln2 fusion (human)
Method: yeast growth competition, sequencing
Medium: yeast
Notes: weak parent motif
Relative to: not given
Reading: higher = stronger binding
Measurement: normalised enrichment score
Parent: CDKN1B docking peptide (human); PSACRNLFGPVDH
Substitution = PSARRNLFGPVDH [C4R]; value = 1.06
Substitution = PSDCRNLFGPVDH [A3D]; value = 0.189
Substitution = PSACRFLFGPVDH [N6F]; value = 0.157
Substitution = PSACRNLFGEVDH [P10E]; value = 0.392
Substitution = PSACRNLQGPVDH [F8Q]; value = 0.259
Substitution = PSACRTLFGPVDH [N6T]; value = 0.563
Substitution = PSACRNLCGPVDH [F8C]; value = -0.0431
Substitution = PSACRNHFGPVDH [L7H]; value = -0.00141
Substitution = PSAIRNLFGPVDH [C4I]; value = 0.437
Substitution = PSAVRNLFGPVDH [C4V]; value = 0.203
Substitution = PSAQRNLFGPVDH [C4Q]; value = -0.019
Substitution = PSACRNLFGPVEH [D12E]; value = 0.193
Substitution = PSACRNLFGPHDH [V11H]; value = 0.701
Substitution = PSACRNLFGPVDQ [H13Q]; value = 0.433
Substitution = PSACVNLFGPVDH [R5V]; value = 0.271
Substitution = PSACRNLFGPVCH [D12C]; value = 0.395
Substitution = PSACRNLFGAVDH [P10A]; value = 0.0729
Substitution = PSACRNLFGPVDR [H13R]; value = 0.424
Substitution = PSHCRNLFGPVDH [A3H]; value = 0.235
Substitution = PSACRNLFGPVYH [D12Y]; value = 0.473
Substitution = PSACRNLFTPVDH [G9T]; value = 0.573
Substitution = PSICRNLFGPVDH [A3I]; value = 0.84
Substitution = PGACRNLFGPVDH [S2G]; value = 0.34
Substitution = PSAWRNLFGPVDH [C4W]; value = 0.659

Series 2
Target: ABI1, truncated, D143A, DHFR fusion (Arabidopsis thaliana)
Method: DHFR PCA, deep sequencing
Medium: yeast
Notes: methotrexate growth selection, single substitutions
With: (+)-ABA 0.39 µM
Relative to: wild-type fitted maximum
Reading: higher = stronger binding
Measurement: relative binding score
Parent: PYL1, truncated, DHFR fusion (Arabidopsis thaliana); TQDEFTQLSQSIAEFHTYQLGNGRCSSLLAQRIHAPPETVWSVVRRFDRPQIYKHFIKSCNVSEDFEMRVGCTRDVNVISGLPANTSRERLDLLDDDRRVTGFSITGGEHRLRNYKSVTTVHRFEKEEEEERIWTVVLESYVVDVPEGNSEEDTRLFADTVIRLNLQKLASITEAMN
Substitution = K58W; value = -5.84%
Substitution = L156S; value = 23.2%
Substitution = L91A; value = -4.41%
Substitution = R69C; value = 31.5%
Substitution = N149Y; value = 16.7%
Substitution = S117G; value = 2.83%
Substitution = A84N; value = 23.6%
Substitution = V121K; value = -4%
Substitution = I162N; value = 2.8%
Substitution = R49N; value = 22.5%
Substitution = F15E; value = -0.539%
Substitution = I33S; value = -0.656%
Substitution = D3I; value = 21.6%
Substitution = E174A; value = -0.297%
Substitution = T6Q; value = 58.4%
Substitution = L20I; value = 52.3%

Series 3
Target: RING finger protein unkempt homolog, zinc fingers 1-6, GST-SBP tag (UNK, Homo sapiens, UniProt Q9C0B0, residues 30-357)
Chain of UniProt Q9C0B0 (30-357, looked up): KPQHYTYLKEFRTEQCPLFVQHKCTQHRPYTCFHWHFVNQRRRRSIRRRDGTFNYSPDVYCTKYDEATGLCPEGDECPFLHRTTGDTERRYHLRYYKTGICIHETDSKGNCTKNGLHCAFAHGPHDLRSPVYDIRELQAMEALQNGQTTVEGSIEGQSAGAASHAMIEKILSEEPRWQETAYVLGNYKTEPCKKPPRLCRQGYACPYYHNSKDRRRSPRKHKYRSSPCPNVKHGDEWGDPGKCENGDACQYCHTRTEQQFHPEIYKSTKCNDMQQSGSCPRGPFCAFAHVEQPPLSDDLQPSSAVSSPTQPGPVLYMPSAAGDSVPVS
Method: RNA Bind-n-Seq
Molecule type: RNA
Medium: in vitro
Concentration: not given
Notes: RNA with constant flanks, human and mouse sites, ends assumed
Relative to: input RNA pool
Reading: higher = stronger binding
Measurement: bound/input enrichment
Constant ends, left off below: GGGAGUUCUACAGUCCGACGAUC … CAACAGAGGAUUGAGCAUCA
Sequence = GCACAUGGUUUGGGACUUGCACGUUCUGCCAUGGAGGAGUCUUCAGUGACAGUUGGCACAAUAGACGUUUCUUAUCUGCCCAGUUCAUCGGAAUACAGCCUUGGCCGAUGUAAACACACC; value = 0.224 ratio
Sequence = GACACUCUCAUCAAGACCUUUGUGCGCUCGCAGACCACCCAAGUGCAUGAUGGGAAAGGUAUUAGAUUUACUGCUAAUGAGGACAUUCGUCCGGAAAAGGGGUCUGGUGUGGACGAUCCU; value = 0.319 ratio
Sequence = ACUGGGUUUGGAUUAGGAAUUGUUUUCUCCCUCACCUUCUUUAAGAGAAGAAUGUGGCCAUUAGCCUUUGGUUCUGGCGUGGGAUUGGGAAUGGCCUACUCCAACUGUCAGCAUGACUUU; value = 0.381 ratio
Sequence = CCCAACAACACAGUAGUUGGGUCAUCAUAUGUACUUUUUGUCUUAUCGAUUUUCUUCACAAUAGUAGGACUUCUGUUUGCUGGCAAAGUCUGUUUACCAGGCUGACGAAUGUCUAAACGG; value = 0.212 ratio
Sequence = AACAUUUCUACUCUACCAGAGAGUCUUUUAUCCAGUCUUGUAAAAUUGAAUAGCUUGACCUUAGCUAGAAAUUGCUUCCAGUUAUAUCCAGUGGGAGGUCCAUCUCAGUUUUCCACCAUU; value = 0.376 ratio
Sequence = UAAAAAAUCAAGCUAUGUACUUAUUUUCUAUAUUUGGGUGUGUUAAAUUGAGGAUUAGAAAAAUCCACAUAAUCACUGAUAAAGCAUUGAAACAGAAUAACCCAAGGGUAGUGUACCGAU; value = 0.241 ratio
Sequence = UGGAGUGGAGGCUGAGCCCUCUUUCCUUGGCUUCCAUUUAAAAUGAACUUCACAACAUUCUAGCUAUUGAGGGAUGACAAAAGGAACCCAGAAAAGUGUGUAGGAAAUUACAAGCAGGUU; value = 1.01 ratio
Sequence = UUUCUAUCUUUGAAAAUUUUCAUUUAUGAGUUCCAUGAUAUGUGGUCUAAGAAAGACCAAACAGAUUUCUAUUUUUUUUUUCUUAUAAGUUCGUUGUGUCUAGAGAUUGUUAAUAUUGUA; value = 3.52 ratio

Series 4
Target: Interferon regulatory factor 3, full length, phosphomimetic (IRF3, Homo sapiens, UniProt Q14653, residues 1-427, S386D/S396D/S398D/S402D/T404D/S405D)
Method: protein-binding microarray
Molecule type: double-stranded DNA, one strand shown
Medium: in vitro
Concentration: 2540 nM top
Notes: 60-bp whole probe
With: salmon DNA 0.4 mg/ml
Relative to: random background probes
Reading: higher = stronger binding
Measurement: fitted relative affinity
Constant ends, left off below: GCCTAGCAC … GTCTTGATTCGCTTGACGCTGCTG
Residues (chain): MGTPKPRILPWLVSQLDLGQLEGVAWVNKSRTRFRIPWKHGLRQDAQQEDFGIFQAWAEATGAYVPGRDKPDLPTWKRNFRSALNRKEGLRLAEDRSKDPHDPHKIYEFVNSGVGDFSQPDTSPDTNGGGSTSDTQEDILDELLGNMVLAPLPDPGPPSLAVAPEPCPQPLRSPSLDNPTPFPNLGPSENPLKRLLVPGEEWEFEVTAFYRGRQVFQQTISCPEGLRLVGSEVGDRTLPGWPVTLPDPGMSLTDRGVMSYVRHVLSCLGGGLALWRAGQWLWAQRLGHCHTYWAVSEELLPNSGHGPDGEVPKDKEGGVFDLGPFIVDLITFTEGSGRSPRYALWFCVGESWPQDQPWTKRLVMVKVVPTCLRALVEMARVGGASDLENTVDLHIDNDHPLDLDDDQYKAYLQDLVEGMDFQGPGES
Sequence = TCATGTTGCAGACTCGAACTGTGCTAG; value = 1.76 z-score
Sequence = TTAGGTCTCCTACTGCTTGAGTGCTAG; value = 0.928 z-score
Sequence = GACGTTCTCGGACTGGGGACGTGCTAG; value = 0.594 z-score
Sequence = CTGGAGAGACGGAGTCTCCAGTGCTAG; value = -0.715 z-score
Sequence = GACGGTCTCGGACTGGGGTCGTGCTAG; value = 0.16 z-score
Sequence = GTAGATTCCAGTTTCGATTAGTGCTAG; value = 4.76 z-score
Sequence = TGAGGTTTCGACACTGGGTTAGTGCTA; value = 2.17 z-score
Sequence = GACCGACTGGGTTTCGGGACGTGCTAG; value = 1.73 z-score
Sequence = TTTGCTTTCTTTATGCACTCGTGCTAG; value = 2.61 z-score
Sequence = GACGGTATCGGGTTTTGGGACGTGCTA; value = 1.89 z-score
Sequence = GACAATTTCGGGTATCGAGACGTGCTA; value = 1.46 z-score
Sequence = TCATGGATATATATCATACTGTGCTAG; value = 0.0853 z-score
Sequence = TGATTTTGGTCTTTCTGTTTGTGCTAG; value = 1.47 z-score
Sequence = TTAGGTATCGACTTCCGGTTAGTGCTA; value = 0.793 z-score
Sequence = GACCATATCAGACTGGAGACGTGCTAG; value = 1.01 z-score
Sequence = GACGAACTGAGTTTCGAGGCGTGCTAG; value = 0.761 z-score
